Published values of several laboratories.
Every numbered part comes from another study and shows a few of its results, in no order. Positions count from the first letter of the parent shown.

Study 1 — target: tungstate, free oxyanion; technique: microfluidic competitive inhibition; medium: in vitro, cell-free expressed; concentration: not given; reading: lower = stronger binding; endpoint: oxyanion analog dissociation constant
Notes: derived from inhibition constants, unchanged parent 2230 nM
Starting sequence: PafA, mature enzyme, eGFP fusion (Elizabethkingia meningoseptica, UniProt Q9KJX5); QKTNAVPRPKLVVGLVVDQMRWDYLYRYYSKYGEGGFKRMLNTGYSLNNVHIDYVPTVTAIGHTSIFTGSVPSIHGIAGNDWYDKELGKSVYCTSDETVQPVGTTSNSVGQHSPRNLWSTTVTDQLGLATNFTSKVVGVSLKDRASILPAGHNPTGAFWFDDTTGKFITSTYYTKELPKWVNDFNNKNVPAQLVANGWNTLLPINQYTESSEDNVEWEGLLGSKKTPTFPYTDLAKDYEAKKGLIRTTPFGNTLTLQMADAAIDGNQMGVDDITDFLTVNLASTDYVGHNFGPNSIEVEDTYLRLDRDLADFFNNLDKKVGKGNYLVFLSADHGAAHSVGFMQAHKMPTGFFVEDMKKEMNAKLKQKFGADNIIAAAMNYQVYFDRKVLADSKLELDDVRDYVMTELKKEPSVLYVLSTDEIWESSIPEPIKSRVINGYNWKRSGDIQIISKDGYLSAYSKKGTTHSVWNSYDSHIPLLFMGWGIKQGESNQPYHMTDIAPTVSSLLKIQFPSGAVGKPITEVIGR
L201V: 2.32 µM
S73V: 978 nM
N49G: 1.88 µM
R526V: 3.55 µM
N372G: 2.04 µM
T278V: 1.4 µM

Study 2 — target: CCND2, cyclin fold, Cln2 fusion (human); technique: yeast growth competition, sequencing; medium: yeast; notes: weak parent motif; reference: not given; reading: higher = stronger binding; endpoint: normalised enrichment score; starting sequence: viral docking peptide; TSVRRALFTGGSD
V3N: -0.299
T9L: -0.118
R5C: -0.25
V3I: 0.176
R4C: -0.318
T9A: -0.104
G10P: -0.246
T9S: -0.0287
T9K: 0.024
G11N: -0.0636
G10C: -0.0536
R4D: -0.112
L7E: 0.0629
R4N: 0.0118
T9Q: -0.444
G11R: -0.0868
L7I: 0.301
G11F: 0.184
R5G: 0.0741
G10R: 0.0832
R4M: -0.286
L7C: -0.0432
S2G: 0.0607
S12W: -0.25
T1A: 0.557

Study 3 — technique: RNA Bind-n-Seq; form: RNA; medium: in vitro; concentration: 365 nM; reference: no-protein control; reading: higher = stronger binding; endpoint: RBNS enrichment (R)
Target: RNA binding protein fox-1 homolog 2, RRM domain, GST-SBP tag (RBFOX2, Homo sapiens, UniProt O43251-10, residues 100-194)
Notes: natural RNA segment, single round, ends assumed
Residues (chain): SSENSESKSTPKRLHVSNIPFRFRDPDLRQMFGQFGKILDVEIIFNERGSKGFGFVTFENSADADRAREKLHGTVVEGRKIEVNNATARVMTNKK
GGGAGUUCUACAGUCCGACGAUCCAAACAUAGUAUAUCCUUUAGUACUUUAACAUAUUUUUGUUAAAAUACUUUUAAUGGUAAGAAAUGAACUUGAGGUCCCAGGAGGUUUUGUUGCCUUUUCAUUGAUUAGAUGGAAUUCUCGGGUGCCAA: 0.299
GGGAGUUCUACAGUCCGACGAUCAGUGGGCUGGGGCCUUGAGGUGACUCUGUGUCUCCCCCCAAAGCCACAGGGCAGGGAAGGGGGUGGCUGGGCCUCCUGGCUGGCAAAGGGCUCUACUUAAAGCACAUGAUUGGAAUUCUCGGGUGCCAA: 0.348
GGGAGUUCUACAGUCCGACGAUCAAACUAUCUUGAAUUUGCAAAUAUAGUGUUAUAUUUUAUAAAGUUUUGUAAAAUCCCAAACAAUAUUUCUAUUUUUGUAAAACAAUUGUAUGUAUAAUCUGUAUUUGAAAUGGAAUUCUCGGGUGCCAA: 0.681
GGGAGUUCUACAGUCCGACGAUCGAGUUUUCAGAUCAAAAACUGGUUACCAUUUUUUGUCAGAGUGUCUGAUGCGGCCACUCAUUCGGCUCCCCAGAAUUCCUAGACUGGGUUAAUAGGGUCAUAUUGUGAAUUGGAAUUCUCGGGUGCCAA: 1.24
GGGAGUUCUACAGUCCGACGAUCAAAAAAUCUAUUCAGUCUACUCACAAAACAGUACAUUGUGGAAUAUUAUGGGGAAUUGUACCAAAACAAGAACCAUAUAAAUGAUGCCUAGGGACAAGAAAGAGGAACAAUGGAAUUCUCGGGUGCCAA: 0.275
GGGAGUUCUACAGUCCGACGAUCACACUGCAAGCCCUUAAUCAGCCCUCUGUGACAUAGGUAGCAGCCCACGGAGAUCCUAAGCUGGCUGUCUUGUGUGCAGCCUGAGUGGGGUGGUGCAGGCCGGUAGUCUGUGGAAUUCUCGGGUGCCAA: 0.228
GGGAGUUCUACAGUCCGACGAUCCCUAUCUCCCAUAGCCAUUGCUGGCCACCCCUCUCUGUCAAUCUGUGCGCUCUUUUGAUACAUACAUUUACCUGCUGUUUUUCUCAAAUAAAAGUUGCAAGCUACUGCUCUGGAAUUCUCGGGUGCCAA: 0.986
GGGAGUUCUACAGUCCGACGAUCGUCCUUUUCAUGUAAAUUUUUGUGCAAGCACAAUCUACUUUAACUGCCUUGCCUGACCAAAUUAAAUAAAUAGUUGCCAGAUCUCUGCUUUUAUCCUGCAUGGGAUAACAUGGAAUUCUCGGGUGCCAA: 1.05

Study 4 — technique: universal PBM; form: double-stranded DNA, one strand shown; medium: in vitro; concentration: not given; reading: higher = stronger binding; endpoint: E-score
Target: Sal-like protein 4, full length isoform B (SALL4, Homo sapiens, UniProt Q9UJQ4-2, residues 1-616)
Notes: 8-mer, flanks averaged, mean of replicates
AGGGCGCG: -0.222
ACACTCAT: 0.266
CATGCGGG: -0.313
GCCTCTAA: -0.121
AAGGCAAT: 0.131
CAACTTCG: -0.0783
AGCCTACT: -0.137
CTTCAACA: 0.156

Study 5 — technique: RNA Bind-n-Seq; form: RNA; medium: in vitro; concentration: 200 nM; notes: whole 134-nt RNA, ends assumed; with: 150 mM KCl; reference: input library; reading: higher = stronger binding; endpoint: log2 enrichment
Target: Ras GTPase-activating protein-binding protein 1, full length (G3BP1, Homo sapiens, UniProt Q13283)
Chain of UniProt Q13283 (whole entry, looked up): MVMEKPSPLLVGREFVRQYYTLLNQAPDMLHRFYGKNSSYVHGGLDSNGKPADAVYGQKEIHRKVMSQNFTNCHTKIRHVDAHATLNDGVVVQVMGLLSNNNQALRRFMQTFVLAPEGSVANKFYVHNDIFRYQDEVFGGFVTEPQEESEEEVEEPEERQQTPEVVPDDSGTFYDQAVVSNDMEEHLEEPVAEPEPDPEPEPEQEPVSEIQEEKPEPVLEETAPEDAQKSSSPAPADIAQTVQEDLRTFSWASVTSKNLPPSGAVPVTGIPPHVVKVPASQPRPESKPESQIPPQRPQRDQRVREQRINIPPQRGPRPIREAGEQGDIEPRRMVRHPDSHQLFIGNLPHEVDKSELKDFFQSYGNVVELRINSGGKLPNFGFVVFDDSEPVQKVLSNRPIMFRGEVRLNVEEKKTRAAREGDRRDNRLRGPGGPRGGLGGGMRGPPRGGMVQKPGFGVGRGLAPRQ
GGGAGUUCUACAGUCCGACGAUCAGUCCUGUGCUACACAUCGUAUGUACCGAAUCGGGUUUUUGGGUUUUUGGGUUUUUGGAAAGUAUUAUGUUACGCCGUUCGGAUCUGCACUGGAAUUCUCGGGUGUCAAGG: -0.868
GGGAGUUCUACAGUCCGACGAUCUGAAGCGAGAAGCUGCCCUACCCCCAGUGAGCCCCCUGAAGGCGGCUCUCUCUGAGGAGGAGUUAGAGAAGAAAUCCAAGGCUAUCAUUGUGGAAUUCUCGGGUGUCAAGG: -0.684
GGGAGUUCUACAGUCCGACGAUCCUCAAGUCCUGUGCUACACAUCGUAUGUACCGAAUCGGAAAGGUGGUUUUUGGAAAGUAUUAUGUUACGCCGUUCGGAUCUGCACUUCCAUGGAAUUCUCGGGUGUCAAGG: -0.652
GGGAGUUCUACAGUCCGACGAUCUAACUUUAGAGGAGGAUCUGAUGGAUAUGGCAGUGGACGUGCAUUUGGGGAUGGCUAUAAUGGGUAUGGAGGAGGACCUGGAGGUGGCAAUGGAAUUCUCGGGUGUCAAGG: 0.0413
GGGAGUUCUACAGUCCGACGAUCAGUCCUGUGCUACACAUCGUAUGUACCGAAUCGGGUUUGGGUUUGGGAAAAAAAGGGAAAGUAUUAUGUUACGCCGUUCGGAUCUGCACUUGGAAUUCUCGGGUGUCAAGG: -0.444
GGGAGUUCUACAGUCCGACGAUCUUCCUCAAGUCCUGUGCUACACAUCGUAUGUACCGAAUCGGUGGUGGUGGGAAAGUAUUAUGUUACGCCGUUCGGAUCUGCACUUCCAGCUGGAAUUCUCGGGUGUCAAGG: -0.384
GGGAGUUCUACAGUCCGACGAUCGUCCUGUGCUACACAUCGUAUGUACCGAAUCGGGAAAAAAAGGGUUUUUGGGAAAGGGAAAGUAUUAUGUUACGCCGUUCGGAUCUGCACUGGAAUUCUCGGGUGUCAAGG: -0.61
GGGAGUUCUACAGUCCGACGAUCUGGCCCUGGUGGCAUGCGGGGAGGAAGAGGUGGCCUCAUGGAUCGUGGUGGUCCCGGUGGAAUGUUCAGAGGUGGCCGUGGUGGAGCCAGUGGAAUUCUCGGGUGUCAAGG: 0.208

Some of these lines once more (study 2):
R4D: -0.112
L7E: 0.0629
R4N: 0.0118
T9Q: -0.444
G11R: -0.0868
L7I: 0.301
G11F: 0.184
